Assay results collected from several papers.
Protocols differ between the studies behind these lines. Numbers after ± are the reported error.
HDAC11: Histone deacetylase 11 (HDAC11, Homo sapiens, UniProt Q96DB2)
Chain of UniProt Q96DB2 (whole entry, looked up): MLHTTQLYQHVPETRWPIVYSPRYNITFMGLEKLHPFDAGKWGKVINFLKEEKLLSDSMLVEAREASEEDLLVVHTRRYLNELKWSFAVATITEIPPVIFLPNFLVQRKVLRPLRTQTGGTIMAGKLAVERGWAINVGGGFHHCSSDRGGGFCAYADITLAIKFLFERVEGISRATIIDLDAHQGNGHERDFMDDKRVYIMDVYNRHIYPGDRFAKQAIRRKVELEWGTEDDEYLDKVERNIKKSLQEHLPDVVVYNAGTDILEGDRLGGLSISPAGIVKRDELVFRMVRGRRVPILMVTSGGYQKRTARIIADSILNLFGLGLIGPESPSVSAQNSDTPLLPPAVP
CNR2: Cannabinoid receptor 2 (CNR2, Homo sapiens, UniProt P34972)
Chain of UniProt P34972 (whole entry, looked up): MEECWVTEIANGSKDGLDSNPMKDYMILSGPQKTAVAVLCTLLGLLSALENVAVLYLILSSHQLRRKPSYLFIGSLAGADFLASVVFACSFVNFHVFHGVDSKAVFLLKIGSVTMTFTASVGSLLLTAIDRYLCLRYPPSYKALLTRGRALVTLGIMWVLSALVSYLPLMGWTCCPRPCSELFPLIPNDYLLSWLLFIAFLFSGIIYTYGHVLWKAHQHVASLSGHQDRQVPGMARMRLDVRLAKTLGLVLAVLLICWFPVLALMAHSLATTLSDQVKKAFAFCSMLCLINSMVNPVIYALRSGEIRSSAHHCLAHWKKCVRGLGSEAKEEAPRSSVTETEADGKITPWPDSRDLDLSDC
MAOA: Amine oxidase [flavin-containing] A (MAOA, Homo sapiens, UniProt P21397)
Chain of UniProt P21397 (whole entry, looked up): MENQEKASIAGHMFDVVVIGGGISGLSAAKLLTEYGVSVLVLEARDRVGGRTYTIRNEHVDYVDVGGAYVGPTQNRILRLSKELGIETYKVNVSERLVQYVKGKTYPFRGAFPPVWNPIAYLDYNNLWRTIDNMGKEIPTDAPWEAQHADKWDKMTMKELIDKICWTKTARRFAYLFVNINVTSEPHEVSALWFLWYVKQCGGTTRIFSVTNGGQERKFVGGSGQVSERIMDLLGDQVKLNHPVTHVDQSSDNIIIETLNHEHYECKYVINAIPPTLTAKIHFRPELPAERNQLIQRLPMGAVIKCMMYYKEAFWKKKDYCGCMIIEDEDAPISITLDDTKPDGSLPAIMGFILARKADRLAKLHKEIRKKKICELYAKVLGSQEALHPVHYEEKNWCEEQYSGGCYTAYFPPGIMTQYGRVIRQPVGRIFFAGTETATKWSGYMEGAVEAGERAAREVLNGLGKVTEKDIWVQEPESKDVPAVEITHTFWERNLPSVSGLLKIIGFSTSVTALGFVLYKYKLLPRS
NAA40: N-alpha-acetyltransferase 40 (NAA40, Homo sapiens, UniProt Q86UY6)
cah: cah (Neisseria gonorrhoeae, UniProt Q50940)
Chain of UniProt Q50940 (whole entry, looked up): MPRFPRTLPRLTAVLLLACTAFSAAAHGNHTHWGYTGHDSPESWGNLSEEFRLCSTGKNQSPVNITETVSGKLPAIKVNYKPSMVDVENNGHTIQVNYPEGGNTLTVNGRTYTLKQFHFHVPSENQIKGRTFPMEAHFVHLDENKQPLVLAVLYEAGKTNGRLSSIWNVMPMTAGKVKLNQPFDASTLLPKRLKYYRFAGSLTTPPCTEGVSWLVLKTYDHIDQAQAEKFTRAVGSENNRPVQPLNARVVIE
Chain of UniProt P21728 (whole entry, looked up): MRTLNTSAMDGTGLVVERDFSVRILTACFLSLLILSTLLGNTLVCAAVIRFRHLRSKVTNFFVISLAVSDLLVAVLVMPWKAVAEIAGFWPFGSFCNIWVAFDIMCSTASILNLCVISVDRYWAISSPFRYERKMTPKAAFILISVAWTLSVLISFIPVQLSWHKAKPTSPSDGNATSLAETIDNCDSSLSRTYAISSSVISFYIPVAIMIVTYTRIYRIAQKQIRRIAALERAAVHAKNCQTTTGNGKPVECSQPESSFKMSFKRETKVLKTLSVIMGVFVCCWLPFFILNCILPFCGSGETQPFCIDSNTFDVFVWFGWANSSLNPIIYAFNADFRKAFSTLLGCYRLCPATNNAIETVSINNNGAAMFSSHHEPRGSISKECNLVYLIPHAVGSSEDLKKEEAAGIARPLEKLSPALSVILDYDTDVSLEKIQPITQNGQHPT
Chain of UniProt P45983 (whole entry, looked up): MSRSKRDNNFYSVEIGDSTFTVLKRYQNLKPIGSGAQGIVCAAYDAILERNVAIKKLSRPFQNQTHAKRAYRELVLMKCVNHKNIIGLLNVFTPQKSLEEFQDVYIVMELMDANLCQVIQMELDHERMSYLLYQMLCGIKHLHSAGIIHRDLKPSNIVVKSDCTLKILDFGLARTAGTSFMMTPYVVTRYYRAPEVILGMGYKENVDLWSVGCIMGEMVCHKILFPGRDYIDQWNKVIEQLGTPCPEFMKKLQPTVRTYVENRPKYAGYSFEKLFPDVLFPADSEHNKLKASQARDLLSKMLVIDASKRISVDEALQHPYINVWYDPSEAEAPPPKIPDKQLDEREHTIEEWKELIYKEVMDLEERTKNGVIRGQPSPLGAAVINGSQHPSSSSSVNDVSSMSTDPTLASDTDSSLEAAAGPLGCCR
Chain of UniProt Q6DWJ6 (whole entry, looked up): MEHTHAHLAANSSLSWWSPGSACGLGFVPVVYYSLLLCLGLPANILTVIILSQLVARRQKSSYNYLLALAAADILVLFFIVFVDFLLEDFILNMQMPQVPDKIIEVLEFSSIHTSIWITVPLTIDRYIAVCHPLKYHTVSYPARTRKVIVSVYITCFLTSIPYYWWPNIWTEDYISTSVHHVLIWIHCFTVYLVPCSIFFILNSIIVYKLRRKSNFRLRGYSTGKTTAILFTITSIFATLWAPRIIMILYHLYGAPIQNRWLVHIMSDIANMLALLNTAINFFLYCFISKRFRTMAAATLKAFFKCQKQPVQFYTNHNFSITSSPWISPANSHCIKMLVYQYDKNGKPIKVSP
Chain of UniProt Q9NXA8 (whole entry, looked up): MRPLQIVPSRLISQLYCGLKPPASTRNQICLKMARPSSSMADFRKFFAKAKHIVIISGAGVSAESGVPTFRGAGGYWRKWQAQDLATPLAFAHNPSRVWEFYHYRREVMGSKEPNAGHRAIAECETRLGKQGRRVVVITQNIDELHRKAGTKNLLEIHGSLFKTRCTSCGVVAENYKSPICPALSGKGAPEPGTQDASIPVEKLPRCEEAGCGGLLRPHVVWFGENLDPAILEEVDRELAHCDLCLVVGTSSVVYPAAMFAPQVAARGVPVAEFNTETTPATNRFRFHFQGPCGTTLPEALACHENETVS
Chain of UniProt P25100 (whole entry, looked up): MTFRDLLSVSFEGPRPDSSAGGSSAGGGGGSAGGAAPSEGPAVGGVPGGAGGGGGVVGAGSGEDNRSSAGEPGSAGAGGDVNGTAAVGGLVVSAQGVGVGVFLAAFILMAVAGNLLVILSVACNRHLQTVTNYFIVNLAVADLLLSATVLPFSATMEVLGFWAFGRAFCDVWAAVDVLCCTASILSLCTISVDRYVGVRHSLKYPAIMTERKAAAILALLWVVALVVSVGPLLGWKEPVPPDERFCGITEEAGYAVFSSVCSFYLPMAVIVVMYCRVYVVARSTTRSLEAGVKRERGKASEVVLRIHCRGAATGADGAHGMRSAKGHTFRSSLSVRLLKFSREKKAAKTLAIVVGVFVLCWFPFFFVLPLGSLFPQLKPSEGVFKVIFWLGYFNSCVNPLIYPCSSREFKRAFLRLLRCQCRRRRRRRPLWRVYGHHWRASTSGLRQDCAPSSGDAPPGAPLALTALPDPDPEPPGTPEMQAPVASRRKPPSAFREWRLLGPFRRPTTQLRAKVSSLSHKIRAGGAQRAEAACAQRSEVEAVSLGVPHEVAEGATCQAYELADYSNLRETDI
Chain of UniProt P30968 (whole entry, unmodified, looked up): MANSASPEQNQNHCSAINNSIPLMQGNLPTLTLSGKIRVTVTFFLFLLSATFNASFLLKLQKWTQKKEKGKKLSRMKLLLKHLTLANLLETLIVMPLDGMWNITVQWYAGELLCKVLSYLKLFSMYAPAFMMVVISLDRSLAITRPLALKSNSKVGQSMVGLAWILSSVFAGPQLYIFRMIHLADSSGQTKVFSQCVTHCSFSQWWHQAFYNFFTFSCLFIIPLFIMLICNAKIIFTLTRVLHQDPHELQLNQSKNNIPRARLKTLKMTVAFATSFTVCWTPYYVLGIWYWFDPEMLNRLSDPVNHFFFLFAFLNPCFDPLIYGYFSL
Chain of UniProt Q92800 (whole entry, looked up): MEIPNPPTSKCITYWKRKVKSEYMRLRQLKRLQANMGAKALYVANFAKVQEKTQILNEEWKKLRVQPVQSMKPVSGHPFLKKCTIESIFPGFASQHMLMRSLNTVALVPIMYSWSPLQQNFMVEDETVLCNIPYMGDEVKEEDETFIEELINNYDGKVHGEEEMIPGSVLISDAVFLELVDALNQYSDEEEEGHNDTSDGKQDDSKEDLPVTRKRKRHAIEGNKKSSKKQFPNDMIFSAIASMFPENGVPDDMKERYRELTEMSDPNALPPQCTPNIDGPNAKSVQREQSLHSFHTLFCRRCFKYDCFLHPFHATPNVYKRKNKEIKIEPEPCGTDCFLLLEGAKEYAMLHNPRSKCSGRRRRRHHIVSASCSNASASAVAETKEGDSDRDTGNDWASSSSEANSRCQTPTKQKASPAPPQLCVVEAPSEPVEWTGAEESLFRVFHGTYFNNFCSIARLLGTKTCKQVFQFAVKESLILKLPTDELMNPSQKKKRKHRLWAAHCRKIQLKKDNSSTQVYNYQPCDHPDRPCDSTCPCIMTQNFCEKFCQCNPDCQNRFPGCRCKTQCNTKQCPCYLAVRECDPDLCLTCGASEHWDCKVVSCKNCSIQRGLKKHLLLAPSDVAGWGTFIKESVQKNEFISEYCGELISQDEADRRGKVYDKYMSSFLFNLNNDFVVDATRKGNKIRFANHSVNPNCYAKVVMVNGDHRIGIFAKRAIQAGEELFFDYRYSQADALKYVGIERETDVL

SMILES | target | effect on | mode | technique | notes | together with | Ki [nM]
CCc1c(Cl)cccc1N1CCN(C[C@H](F)CCNC(=O)c2cc3ccccc3[nH]2)CC1 | DRD1 (Homo sapiens, UniProt P21728) | ligand displacement | – | radioligand | cell membranes | – | > 10000
Cn1ccc2c(N3CCN(CCCCOc4ccc5c(c4)NC(=O)CC5)CC3)cccc21 | ADRA1D (Homo sapiens, UniProt P25100) | ligand displacement | – | radioligand | – | – | 2200
CC(=O)N[C@@H](CC(C)C)C(=O)NCC(=O)N[C@@H](CCCCNC(=O)CCC(=O)O)C(=O)Nc1ccc2c(C)cc(=O)oc2c1 | SIRT5 (Homo sapiens, UniProt Q9NXA8) | desuccinylation | substrate inhibition | – | – | – | ~700000
O=C(NO)c1cncc(OS(=O)(=O)Oc2ccc(Oc3ccccc3)cc2)c1 | HDAC11 | – | – | – | – | – | 1490
CC[C@H](C)[C@H](NC(=O)[C@H](CCCNC(=N)N)NC(=O)[C@H](CCCNC(=N)N)NC(=O)[C@H](CC(C)C)NC(=O)[C@H](Cc1ccccc1)NC(=O)CNC(=O)CN)C(=O)N[C@@H](CCCNC(=N)N)C(=O)N1CCC[C@H]1C(=O)N[C@@H](CCCCN)C(=O)N[C@@H](CC(C)C)C(=O)N[C@@H](CCCCN)C(N)=O | GPR139 (Homo sapiens, UniProt Q6DWJ6) | ligand displacement | – | radioligand | cell membranes | – | 69.2
CCOC(=O)[C@H](Cc1ccc(OC)cc1)NC(=O)c1ccc(C2CC2)c(Cc2ccc(F)cc2)n1 | CNR2 | ligand displacement | – | radioligand | cell membranes | – | 34
NCCCC[C@H](NN)C(=O)O | Inducible lysine decarboxylase (Hafnia alvei, UniProt G9Y9L1) | – | – | – | – | – | 5900 ± 1400
CC(C)c1ccc(/C=C/C(=O)c2ccc(Br)s2)cc1 | MAOA | enzyme activity | inhibitor | – | – | – | 76
NC(=O)CNC(=O)[C@@H]1CCCN1C(=O)[C@H](Cc1ccc(O)cc1)NC(=O)[C@H](Cc1c[nH]c2ccccc12)NC(=O)CNC(=O)[C@H](Cc1c[nH]cn1)NC(=O)[C@H](CO)NC(=O)[C@H](Cc1c[nH]c2ccccc12)NC(=O)[C@H](Cc1c[nH]cn1)NC(=O)[C@@H]1CCC(=O)N1 | GNRHR (Homo sapiens, UniProt P30968, del191-191) | binding | – | NanoBRET | – | 10 nM sCy5-D-Lys6-GnRH | 21 ± 5.3
Cc1cc(O)c2c(c1)C(=O)c1c(O)c(O)cc(O)c1C2=O | MAOA | enzyme activity | inhibitor | – | – | – | 10500
CC(C)(COP(=O)(O)OP(=O)(O)OC[C@H]1O[C@@H](n2cnc3c(N)ncnc32)[C@H](O)[C@@H]1OP(=O)(O)O)[C@@H](O)C(=O)NCCC(=O)NCCSCCC(=O)N[C@@H](CO)C(=O)NCC(=O)N[C@@H](CCCNC(=N)N)C(=O)NCC(=O)N[C@@H](CCCCN)C(N)=O | NAA40 | enzyme activity | inhibitor | fluorescence | – | – | 46
CCOC(=O)C(CC)(CCCSCCCCCCNc1ccc([N+](=O)[O-])c2nonc12)NC(=O)c1ccc(C2CC2)c(Cc2ccc(F)cc2)n1 (stereo not drawn) | CNR2 | ligand displacement | – | radioligand | cell membranes | – | 55
O=C(c1cccc(N=Nc2ccc(OC3CC(N4CCCCC4)C3)cc2)c1)N1CCCC1 (stereo not drawn) | HRH4 (Homo sapiens, UniProt Q9H3N8) | ligand displacement | – | radioligand | – | – | > 10000
C=CC[C@@H]1NC(=O)CCSCc2ccc(cc2)CSCCCNC(=O)[C@H](CCCCCC(=O)N(O)CCCCCC)NC1=O | HDAC11 | enzyme activity | inhibitor | fluorescence | – | – | 310
CCOC(=O)[C@](CC)(CCCSCCOCCOCCNC(=O)CCCCCN1C(=CC=CC=CC2=[N+](C)c3ccc4ccccc4c3C2(C)C)C(C)(C)c2c1ccc1ccccc21)NC(=O)c1ccc(C2CC2)c(Cc2ccc(F)cc2)n1 | CNR2 | ligand displacement | – | radioligand | cell membranes | – | 14
COC1CN([C@H]2CC[C@H]([C@@]3(C)Oc4c(Cl)cc(C(=O)NCc5c(SC)cc(C)[nH]c5=O)c(C)c4O3)CC2)C1 | Histone-lysine N-methyltransferase EZH1, in PRC2 complex (EZH1, Homo sapiens, UniProt Q92800) | enzyme activity | inhibitor | – | – | activator peptide | 0.055
CCOC(=O)[C@@](CC)(CCCSCCOCCOCCNC(=O)OC(C)(C)C)NC(=O)c1ccc(C2CC2)c(Cc2ccc(F)cc2)n1 | CNR2 | ligand displacement | – | radioligand | cell membranes | – | 151
CC(C)(COP(=O)(O)OP(=O)(O)OC[C@H]1O[C@@H](n2cnc3c(N)ncnc32)[C@H](O)[C@@H]1OP(=O)(O)O)[C@@H](O)C(=O)NCCC(=O)NCCSCC(=O)N[C@@H](CO)C(=O)NCC(=O)N[C@@H](CCCNC(=N)N)C(N)=O | NAA40 | enzyme activity | inhibitor | fluorescence | – | – | 84
CCOC(=O)[C@@H](CCSC)NC(=O)c1ccc(C2CC2)c(Cc2ccc(F)cc2)n1 | CNR2 | ligand displacement | – | radioligand | cell membranes | – | 65
CCCCCCC1CCCC(=O)O1 (stereo not drawn) | cah | enzyme activity | inhibitor | stopped-flow | – | – | 41800
Cc1c(OS(=O)(=O)Oc2ccccc2-c2ccccc2)cccc1C(=O)NO | HDAC11 | – | – | – | – | – | 272
CCCCC1CCC(=O)O1 (stereo not drawn) | cah | enzyme activity | inhibitor | stopped-flow | – | – | 51700
Cc1cc(O)c2c(c1)C(=O)c1cc(O)c(O)c(O)c1C2=O | MAOA | enzyme activity | inhibitor | – | – | – | 56500
CC(C)(COP(=O)(O)OP(=O)(O)OC[C@H]1O[C@@H](n2cnc3c(N)ncnc32)[C@H](O)[C@@H]1OP(=O)(O)O)[C@@H](O)C(=O)NCCC(=O)NCCSCC(=O)N[C@@H](CO)C(=O)NCC(=O)N[C@@H](CCCNC(=N)N)C(=O)NCC(=O)N[C@@H](CCCCN)C(N)=O | NAA40 | enzyme activity | inhibitor | fluorescence | – | – | 58
Cc1c(OS(=O)(=O)Oc2ccc3ccccc3c2)cccc1C(=O)NO | HDAC11 | – | – | – | – | – | 458
C=C1C[C@]2(C(=O)OC)C=C(C(=O)Nc3cccc(C(=O)Nc4ccc(Nc5nccc(-c6cccnc6)n5)c(C)c4)c3)C(=O)[C@H]1C2 | MAPK8 (Homo sapiens, UniProt P45983) | – | – | SPR two-step binding model | wild-type protein surface | – | 1.1
CCOC(=O)[C@](CC)(CCCSCCOCCOCCN)NC(=O)c1ccc(C2CC2)c(Cc2ccc(F)cc2)n1 | CNR2 | binding | – | – | – | – | 2.7 ± 0.9
CCCCCCCCCCCC(=O)NC1CCOC1=O (stereo not drawn) | cah | enzyme activity | inhibitor | stopped-flow | – | – | > 100000
Cc1nc(-c2c[nH]c(C(=O)Nc3ncccc3O)c2)cs1 | Serine protease 1 (PRSS1, Homo sapiens, UniProt P07477) | enzyme activity | inhibitor | absorbance | – | – | 203000
CCOC(=O)C(CC)(CCCSCCCCCCN)NC(=O)c1ccc(C2CC2)c(Cc2ccc(F)cc2)n1 (stereo not drawn) | CNR2 | ligand displacement | – | radioligand | cell membranes | – | 2.7

Some of these lines once more:
SMILES | target | effect on | mode | technique | notes | together with | Ki [nM]
NCCCC[C@H](NN)C(=O)O | Inducible lysine decarboxylase (Hafnia alvei, UniProt G9Y9L1) | – | – | – | – | – | 5900 ± 1400
CCCCC1CCC(=O)O1 (stereo not drawn) | cah | enzyme activity | inhibitor | stopped-flow | – | – | 51700
Cc1cc(O)c2c(c1)C(=O)c1c(O)c(O)cc(O)c1C2=O | MAOA | enzyme activity | inhibitor | – | – | – | 10500
O=C(c1cccc(N=Nc2ccc(OC3CC(N4CCCCC4)C3)cc2)c1)N1CCCC1 (stereo not drawn) | HRH4 (Homo sapiens, UniProt Q9H3N8) | ligand displacement | – | radioligand | – | – | > 10000
